Results of several laboratories.
Each line is one published result; not all experiments were run side by side. ± gives the spread as reported.

| SMILES | assay | test system | setting | tissue uptake |
| --- | --- | --- | --- | --- |
| CCCC[C@H]1C(=O)N(C)[C@@H](CCCC)C(=O)N[C@@H](CCCNC(=O)CN2CCN(CC(=O)O)CCN(CC(=O)O)CCN(CC(=O)O)CC2)C(=O)N[C@H](C(=O)NCC(N)=O)CSCC(=O)N[C@@H](Cc2ccc(O)cc2)C(=O)N(C)[C@@H](C)C(=O)N[C@@H](CC(N)=O)C(=O)N2CCC[C@H]2C(=O)N[C@@H](Cc2c[nH]cn2)C(=O)N[C@@H](CC(C)C)C(=O)N(C)CC(=O)N[C@@H](Cc2c[nH]c3ccccc23)C(=O)N[C@@H](CO)C(=O)N[C@@H](Cc2c[nH]c3ccccc23)C(=O)N1C [gallium-68 labelled] |  | NOD/SCID mice, CHO-hPD-L1 xenograft, intestine | 60 min, atezolizumab 10 mg/kg pretreatment | 2.87 ± 0.44 %ID/g |
| [2H]C([2H])([18F])[C@]([2H])(N)C(=O)O | PET | athymic nude mice, U-87 MG, muscle | dose not given, 60 min post-injection | 0.71 ± 0.09 %ID/cc |
| CC(C)C[C@@H](NC(=O)[C@@H](CCCNC(=N)N)NC(=O)[C@@H](Cc1c[nH]cn1)NC(=O)[C@@H](Cc1c[nH]c2ccccc12)NC(=O)[C@@H](Cc1c[nH]cn1)NC(=O)[C@@H](Cc1ccccc1)NC(=O)[C@H](NC(=O)[C@@H](Cc1ccc(O)cc1)NC(=O)CNC(=O)CNC(=O)CCOCCOCCOCCNC(=O)CN1CCN(CC(=O)O)CCN(CC(=O)O)CC1)[C@H](C)O)C(=O)N[C@H](CC(N)=O)C(=O)N1CCC[C@@H]1C(=O)O [gallium-68 labelled] |  | C57BL/6 mice, male, muscle | intravenous, 1.85 MBq, 60 min, together with: blocking antibody | 0.57 ± 0.11 %ID/g |
| CSCC[C@H](NC(=O)CNC(=O)[C@H](CCCCN)NC(=O)[C@H](CC(C)C)NC(=O)[C@@H]1CCCN1C(=O)[C@H](CO)NC(=O)[C@H](Cc1c[nH]cn1)NC(=O)[C@H](Cc1c[nH]c2ccccc12)NC(=O)[C@H](CCCNC(=N)N)NC(=O)[C@H](CC(C)C)NC(=O)[C@H](CCCNC(=N)N)NC(=O)[C@H](Cc1c[nH]c2ccccc12)NC(=O)[C@H](CS)NC(=O)CCCCCNC(=O)CN1CCN(CC(=O)O)CCN(CC(=O)O)CCN(CC(=O)O)CC1)C(=O)O [copper-64 labelled] | PET imaging | BALB/c nude mice, liver | intravenous, dose not given, 18 h, Huh-7 tumour-bearing | 6.78 ± 0.45 %ID/g |
| CC[C@H](C)[C@H](NC(=O)[C@H](CCCNC(=N)N)NC(=O)[C@H](CCCCN)NC(=O)[C@H](Cc1ccc(O)cc1)NC(=O)[C@H](CC(=O)O)NC(=O)[C@H](C)NC(=O)CNC(=O)CCOCCOCCOCCNC(=O)CN1CCN(CC(=O)O)CCN(CC(=O)O)CCN(CC(=O)O)CC1)C(=O)N[C@H](C(=O)N[C@@H](CC(C)C)C(=O)N[C@@H](CCCCN)C(=O)N[C@H](C(=O)N[C@@H](CC(N)=O)C(N)=O)C(C)C)[C@@H](C)O [copper-64 labelled] | ex vivo gamma counting | C57BL/6J male mice, B16-F10 tumour, liver | intravenous, 1.85 MBq, 5 min | 2.47 ± 0.14 %ID/g |
| C[C@H](O)[C@@H](NC(=O)[C@H]1CCCN1C(=O)[C@@H](CCCCN)NC(=O)[C@@H](CO)NC(=O)[C@@H](Cc1ccc(O)cc1)NC(=O)[C@@H](CC(N)=O)NC(=O)CCOCCOCCOCCNC(=O)CN1CCN(CC(=O)O)CCN(CC(=O)O)CCN(CC(=O)O)CC1)C(=O)N[C@H](CC(=O)O)C(=O)N[C@H](CCCNC(=N)N)C(=O)N[C@H](CCC(N)=O)C(=O)N[C@H](Cc1ccc(O)cc1)C(=O)N[C@H](Cc1c[nH]cn1)C(=O)N[C@H](Cc1ccccc1)C(N)=O [gallium-68 labelled] |  | BALB/c nude mice U-87 MG tumour, lung | intravenous, 1.85 MBq, 0.5 h, radiolabelled | 1.03 ± 0.9 %ID/g |
| CC[C@H](C)[C@H](NC(=O)[C@H](CCCNC(=N)N)NC(=O)[C@H](CCCCN)NC(=O)[C@H](Cc1ccc(O)cc1)NC(=O)[C@H](CC(=O)O)NC(=O)[C@H](C)NC(=O)CNC(=O)CCOCCOCCOCCNC(=O)CN1CCN(CC(=O)O)CCN(CC(=O)O)CCN(CC(=O)O)CC1)C(=O)N[C@H](C(=O)N[C@H](C(=O)N[C@@H](CCCCN)C(=O)N[C@H](C(=O)N[C@@H](CC(N)=O)C(N)=O)C(C)C)C(C)C)[C@@H](C)O [copper-64 labelled] | ex vivo gamma counting | C57BL/6J male mice, B16-F10 tumour, blood | intravenous, 1.85 MBq, 5 min | 8.77 ± 0.573 %ID/g |
| CC[C@H](C)[C@H](NC(=O)[C@H](CCCCN)NC(=O)CNC(=O)[C@H](CC(C)C)NC(=O)[C@H](Cc1ccccc1)NC(=O)[C@H](CCCCN)NC(=O)[C@H](CO)NC(=O)[C@H](Cc1ccccc1)NC(=O)[C@H](Cc1c[nH]c2ccccc12)NC(=O)[C@H](CCC(N)=O)NC(=O)[C@@H](NC(=O)[C@H](Cc1ccccc1)NC(=O)CCCCCNC(=O)CN1CCN(CC(=O)O)CCN(CC(=O)O)CCN(CC(=O)O)CC1)C(C)C)C(=O)N[C@@H](CCC(=O)O)C(=O)N1CCC[C@H]1C(=O)N[C@@H](CC(=O)O)C(=O)N[C@H](C(=O)N[C@@H](CO)C(=O)N[C@@H](CCC(N)=O)C(=O)N[C@H](C(=O)N[C@@H](CCC(N)=O)C(=O)N[C@@H](CC(=O)O)C(=O)N1CCC[C@H]1C(=O)N[C@@H](CC(N)=O)C(=O)N[C@@H](CC(=O)O)C(=O)N[C@@H](CCC(N)=O)C(=O)N[C@@H](Cc1ccc(O)cc1)C(=O)N[C@@H](CCC(=O)O)C(=O)N1CCC[C@H]1C(=O)N[C@@H](Cc1ccccc1)C(=O)O)C(C)C)C(C)C [copper-64 labelled] |  | C57BL/6 mice, male, tumour-free, heart | 0.5 h | 3.07 ± 0.3 %ID/g |

Some of these lines once more:
| SMILES | assay | test system | setting | tissue uptake |
| --- | --- | --- | --- | --- |
| CC[C@H](C)[C@H](NC(=O)[C@H](CCCNC(=N)N)NC(=O)[C@H](CCCCN)NC(=O)[C@H](Cc1ccc(O)cc1)NC(=O)[C@H](CC(=O)O)NC(=O)[C@H](C)NC(=O)CNC(=O)CCOCCOCCOCCNC(=O)CN1CCN(CC(=O)O)CCN(CC(=O)O)CCN(CC(=O)O)CC1)C(=O)N[C@H](C(=O)N[C@@H](CC(C)C)C(=O)N[C@@H](CCCCN)C(=O)N[C@H](C(=O)N[C@@H](CC(N)=O)C(N)=O)C(C)C)[C@@H](C)O [copper-64 labelled] | ex vivo gamma counting | C57BL/6J male mice, B16-F10 tumour, liver | intravenous, 1.85 MBq, 5 min | 2.47 ± 0.14 %ID/g |
